Measurements pooled from the literature.
Each numbered part is a random draw from the data of one study; scales do not carry over between parts. Values joined by “and” are separate records of one study, mostly repeats; a detail may differ.
UniProt Q9UM73, sequence (whole entry, looked up): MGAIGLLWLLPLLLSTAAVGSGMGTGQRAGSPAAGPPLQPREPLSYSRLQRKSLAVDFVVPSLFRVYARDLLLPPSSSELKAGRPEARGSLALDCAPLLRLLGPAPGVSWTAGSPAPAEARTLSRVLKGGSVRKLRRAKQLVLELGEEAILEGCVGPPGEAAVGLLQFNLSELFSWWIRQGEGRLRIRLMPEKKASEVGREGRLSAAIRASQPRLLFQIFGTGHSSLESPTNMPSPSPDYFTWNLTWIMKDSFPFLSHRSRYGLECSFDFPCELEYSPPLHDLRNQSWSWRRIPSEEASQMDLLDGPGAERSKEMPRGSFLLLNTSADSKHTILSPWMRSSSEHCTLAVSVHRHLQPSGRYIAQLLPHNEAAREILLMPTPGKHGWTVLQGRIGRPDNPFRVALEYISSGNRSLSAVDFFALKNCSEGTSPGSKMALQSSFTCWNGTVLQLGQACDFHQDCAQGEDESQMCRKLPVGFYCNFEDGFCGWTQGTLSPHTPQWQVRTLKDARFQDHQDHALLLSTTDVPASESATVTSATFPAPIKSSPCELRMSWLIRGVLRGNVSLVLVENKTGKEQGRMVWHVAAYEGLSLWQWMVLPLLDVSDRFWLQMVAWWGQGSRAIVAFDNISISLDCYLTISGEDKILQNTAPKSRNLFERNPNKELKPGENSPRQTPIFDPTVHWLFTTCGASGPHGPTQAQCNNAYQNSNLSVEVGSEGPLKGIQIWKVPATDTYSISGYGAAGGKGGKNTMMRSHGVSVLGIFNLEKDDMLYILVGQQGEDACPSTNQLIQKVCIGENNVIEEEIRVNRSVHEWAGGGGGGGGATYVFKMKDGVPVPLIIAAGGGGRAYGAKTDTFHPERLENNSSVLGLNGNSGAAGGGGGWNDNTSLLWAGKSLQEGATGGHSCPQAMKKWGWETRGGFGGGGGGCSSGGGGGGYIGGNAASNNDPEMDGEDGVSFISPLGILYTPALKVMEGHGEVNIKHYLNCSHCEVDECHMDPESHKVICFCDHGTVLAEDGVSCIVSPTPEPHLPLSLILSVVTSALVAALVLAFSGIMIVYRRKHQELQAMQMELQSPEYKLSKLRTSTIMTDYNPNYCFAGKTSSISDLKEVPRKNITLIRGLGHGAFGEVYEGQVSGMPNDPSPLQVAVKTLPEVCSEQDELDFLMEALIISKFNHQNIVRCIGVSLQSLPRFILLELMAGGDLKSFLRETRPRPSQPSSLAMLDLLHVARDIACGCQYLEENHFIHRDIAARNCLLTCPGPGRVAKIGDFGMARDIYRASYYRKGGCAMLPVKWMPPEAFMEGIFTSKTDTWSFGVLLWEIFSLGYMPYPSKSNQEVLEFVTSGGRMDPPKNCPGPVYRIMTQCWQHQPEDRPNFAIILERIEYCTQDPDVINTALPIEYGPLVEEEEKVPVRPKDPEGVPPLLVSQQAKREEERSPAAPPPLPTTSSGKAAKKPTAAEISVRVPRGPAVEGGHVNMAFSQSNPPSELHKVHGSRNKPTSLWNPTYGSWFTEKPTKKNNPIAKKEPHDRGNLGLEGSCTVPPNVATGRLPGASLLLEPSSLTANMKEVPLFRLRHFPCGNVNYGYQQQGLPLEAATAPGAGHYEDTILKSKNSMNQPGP
UniProt Q05397, sequence (whole entry, looked up): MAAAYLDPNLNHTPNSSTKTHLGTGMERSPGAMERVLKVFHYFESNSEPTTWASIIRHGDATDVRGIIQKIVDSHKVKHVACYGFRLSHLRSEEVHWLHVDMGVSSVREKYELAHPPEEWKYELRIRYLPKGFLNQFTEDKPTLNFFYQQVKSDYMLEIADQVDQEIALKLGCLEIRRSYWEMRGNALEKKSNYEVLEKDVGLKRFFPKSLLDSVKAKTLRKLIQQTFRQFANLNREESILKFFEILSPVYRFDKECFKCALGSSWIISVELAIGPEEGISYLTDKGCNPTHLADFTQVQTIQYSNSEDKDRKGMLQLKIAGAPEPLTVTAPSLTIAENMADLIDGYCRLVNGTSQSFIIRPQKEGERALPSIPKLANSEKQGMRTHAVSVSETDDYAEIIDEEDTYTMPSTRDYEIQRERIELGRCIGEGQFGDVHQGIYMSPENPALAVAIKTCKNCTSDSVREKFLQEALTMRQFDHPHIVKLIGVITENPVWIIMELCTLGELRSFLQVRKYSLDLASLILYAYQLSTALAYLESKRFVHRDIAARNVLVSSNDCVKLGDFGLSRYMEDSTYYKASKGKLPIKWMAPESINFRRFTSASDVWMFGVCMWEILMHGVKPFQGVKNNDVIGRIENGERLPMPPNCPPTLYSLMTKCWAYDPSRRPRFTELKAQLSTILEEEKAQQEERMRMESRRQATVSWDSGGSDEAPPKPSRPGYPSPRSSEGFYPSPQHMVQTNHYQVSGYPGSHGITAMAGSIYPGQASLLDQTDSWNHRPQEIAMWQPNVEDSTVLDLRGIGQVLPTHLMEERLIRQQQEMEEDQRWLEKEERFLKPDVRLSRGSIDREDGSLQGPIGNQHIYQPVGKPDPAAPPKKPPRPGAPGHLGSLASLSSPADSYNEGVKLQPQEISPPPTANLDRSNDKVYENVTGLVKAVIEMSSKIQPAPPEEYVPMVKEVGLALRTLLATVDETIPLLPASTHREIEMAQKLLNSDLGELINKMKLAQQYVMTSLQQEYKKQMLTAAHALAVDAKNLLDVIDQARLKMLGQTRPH
UniProt Q6P2M8, sequence (whole entry, looked up): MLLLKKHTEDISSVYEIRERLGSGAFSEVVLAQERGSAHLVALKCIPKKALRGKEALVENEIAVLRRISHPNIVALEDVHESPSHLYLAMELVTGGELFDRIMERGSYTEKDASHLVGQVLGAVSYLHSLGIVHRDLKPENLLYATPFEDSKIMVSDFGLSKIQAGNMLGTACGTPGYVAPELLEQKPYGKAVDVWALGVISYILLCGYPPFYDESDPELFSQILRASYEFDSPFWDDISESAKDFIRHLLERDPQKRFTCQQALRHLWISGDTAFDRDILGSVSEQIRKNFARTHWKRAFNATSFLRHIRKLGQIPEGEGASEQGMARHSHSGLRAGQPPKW
UniProt P42679, sequence (whole entry, looked up): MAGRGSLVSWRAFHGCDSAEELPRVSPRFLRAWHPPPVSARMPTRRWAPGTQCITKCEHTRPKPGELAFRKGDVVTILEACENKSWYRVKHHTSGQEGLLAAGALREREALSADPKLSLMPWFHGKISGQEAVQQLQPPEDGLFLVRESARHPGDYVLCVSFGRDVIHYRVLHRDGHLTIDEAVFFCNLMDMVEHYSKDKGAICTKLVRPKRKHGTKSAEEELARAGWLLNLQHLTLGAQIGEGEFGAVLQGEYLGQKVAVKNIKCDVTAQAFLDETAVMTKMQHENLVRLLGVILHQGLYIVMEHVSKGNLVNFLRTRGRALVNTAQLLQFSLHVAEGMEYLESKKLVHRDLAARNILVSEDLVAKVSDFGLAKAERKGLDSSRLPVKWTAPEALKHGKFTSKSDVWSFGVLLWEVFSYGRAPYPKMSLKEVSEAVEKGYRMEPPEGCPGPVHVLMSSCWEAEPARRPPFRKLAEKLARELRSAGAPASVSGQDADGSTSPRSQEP
UniProt Q00535, sequence (whole entry, looked up): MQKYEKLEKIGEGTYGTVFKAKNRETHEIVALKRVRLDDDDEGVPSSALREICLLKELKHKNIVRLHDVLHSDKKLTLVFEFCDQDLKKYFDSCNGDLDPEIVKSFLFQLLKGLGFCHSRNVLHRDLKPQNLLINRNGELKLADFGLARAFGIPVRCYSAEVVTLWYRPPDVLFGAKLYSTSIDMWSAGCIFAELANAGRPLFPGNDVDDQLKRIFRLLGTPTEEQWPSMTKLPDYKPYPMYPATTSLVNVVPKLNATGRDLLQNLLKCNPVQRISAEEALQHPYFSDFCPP
UniProt Q9HCP0, sequence (whole entry, looked up): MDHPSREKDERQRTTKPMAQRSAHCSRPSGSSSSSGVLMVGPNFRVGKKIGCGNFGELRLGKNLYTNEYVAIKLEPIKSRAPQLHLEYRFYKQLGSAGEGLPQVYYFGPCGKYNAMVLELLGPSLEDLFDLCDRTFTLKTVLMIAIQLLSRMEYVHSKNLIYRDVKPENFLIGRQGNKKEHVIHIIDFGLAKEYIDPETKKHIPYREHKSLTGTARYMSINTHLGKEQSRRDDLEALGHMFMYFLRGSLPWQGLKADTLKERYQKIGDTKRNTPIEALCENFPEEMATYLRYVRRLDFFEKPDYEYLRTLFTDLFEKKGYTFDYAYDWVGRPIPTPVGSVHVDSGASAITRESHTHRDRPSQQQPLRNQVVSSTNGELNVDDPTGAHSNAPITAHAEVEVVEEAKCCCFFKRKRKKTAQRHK

Set 1 — effect on: cell-free assay; technique: competition with immobilised ligand; tested at: 1 µM
Structure (SMILES): CN(c1ccnc(CNc2nc(Nc3ccc4c(c3)CC(=O)N4)ncc2C(F)(F)F)n1)S(C)(=O)=O
| target | remaining binding |
| --- | --- |
| Focal adhesion kinase 1 (PTK2, Homo sapiens, UniProt Q05397) | 4.9% |
| Epidermal growth factor receptor (EGFR, Homo sapiens, UniProt P00533, G719C) | 86% |
| Megakaryocyte-associated tyrosine-protein kinase (MATK, Homo sapiens, UniProt P42679) | 65% |
| cAMP-dependent protein kinase catalytic subunit alpha (PRKACA, Homo sapiens, UniProt P17612) | 81% |
| Cyclin-dependent kinase 5 (CDK5, Homo sapiens, UniProt Q00535) | 79% |
| Proto-oncogene tyrosine-protein kinase receptor Ret (RET, Homo sapiens, UniProt P07949, V804M) | 31% |
| Calcium/calmodulin-dependent protein kinase type 1B (PNCK, Homo sapiens, UniProt Q6P2M8) | 66% |
| ALK tyrosine kinase receptor (ALK, Homo sapiens, UniProt Q9UM73) | 81% |
| Receptor-type tyrosine-protein kinase FLT3 (FLT3, Homo sapiens, UniProt P36888, R834Q) | 30% |
| Mitogen-activated protein kinase kinase kinase 5 (MAP3K5, Homo sapiens, UniProt Q99683) | 100% |
| Casein kinase I isoform gamma-1 (CSNK1G1, Homo sapiens, UniProt Q9HCP0) | 100% |

Set 2 — cell line: mouse MPNST tumor cells; technique: high-content nuclear imaging; item: cell number; tested at: 10 µM; time: 12 h; notes: mean of 2 replicates; relative to: plate mean; reading: higher = more cells
| Compound | nuclei count |
| --- | --- |
| CCN(CC)CCCCNc1ncc2cc(-c3cc(OC)cc(OC)c3)c(NC(=O)NC(C)(C)C)nc2n1 | -4.47 z-score |
| CC[N+](C)(C)Cc1ccccc1Br | 3.89 z-score and 1.73 z-score |
| CN1CCN2c3ccccc3Cc3ccccc3C2C1 (stereo not shown) | -1.94 z-score |
| CN(C)[C@H]1CN(C2CCc3cccc(F)c32)C[C@@H]1c1ccc(N2CCN(S(C)(=O)=O)CC2)cc1 (stereo partly shown) | 0.804 z-score |
| CC1(C)CCC(C)(C)c2cc(C#Cc3ccc(C(=O)O)cc3)ccc21 | 0.602 z-score |

Set 3 — species: mouse; sample: microsomes or S9; tested at: 2 µM; time: 0.5 h
| SMILES | remaining compound [%] |
| --- | --- |
| CCn1ncc(NC(=O)c2cc(C)nc3c2c(C)nn3CC)c1C | 46.4 |
| CCc1nc(NCCCn2ccnc2)c2c3c(sc2n1)CCCC3 | 24.7 |
| COC(=O)c1cc(C)sc1NC(=O)C1CC(=O)NN1C (stereo not shown) | 90.1 |
| OC1(Cc2nc(-c3cnccn3)no2)CCCCC1 | 55.4 |
| Cc1ccc2c(c1)c(N1CCCC1=O)c(C(=O)NCC1CCCO1)n2C (stereo not shown) | 78.4 |

Mixed results
| SMILES | cell line | tested at | time | endpoint | value |
| --- | --- | --- | --- | --- | --- |
| CC(C)[C@H](N)C(=O)OCC(CO)OCn1cnc2c(=O)nc(N)[nH]c21 (stereo partly shown) | A-375 | 100 µM | 60 h | viability | 99.7% |
